Measurements from different studies.
Numbered parts are unrelated; each lists some results of a single study. Substitutions count along the parent as printed.

Set 1
Target: Protein C-ets-1 (ETS1, Homo sapiens, UniProt P14921, residues 1-441, K379A, full length assumed)
Method: protein-binding microarray
Form: double-stranded DNA, one strand shown
Medium: in vitro
Concentration: not given
Notes: k-mer, scored over probes, only values ≥0.25
Reading: higher = stronger binding
Residues (chain): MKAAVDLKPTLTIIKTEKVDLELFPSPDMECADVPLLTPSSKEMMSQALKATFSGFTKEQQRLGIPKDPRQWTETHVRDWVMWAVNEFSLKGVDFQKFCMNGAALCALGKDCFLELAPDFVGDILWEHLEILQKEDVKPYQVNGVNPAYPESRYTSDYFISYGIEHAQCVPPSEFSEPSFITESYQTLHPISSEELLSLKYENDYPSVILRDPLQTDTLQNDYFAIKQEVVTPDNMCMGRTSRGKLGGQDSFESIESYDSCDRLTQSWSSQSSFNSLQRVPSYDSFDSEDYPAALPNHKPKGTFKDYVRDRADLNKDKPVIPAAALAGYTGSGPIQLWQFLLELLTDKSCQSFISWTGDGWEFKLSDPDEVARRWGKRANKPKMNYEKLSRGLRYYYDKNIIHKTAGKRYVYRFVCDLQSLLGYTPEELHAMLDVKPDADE
Oligonucleotide	E-score
CGGATAAA	0.264
ACATGTTA	0.254
CACAACAC	0.282
GTCCGGAC	0.337
ACGGAAGT	0.369
GGAGGGGA	0.366
GCGCGAAA	0.264
CCGACATC	0.272

Set 2
Target: PABPC1L2, full length, GST fusion (mouse, UniProt A0ABA7IW68)
Method: RNAcompete
Form: RNA
Medium: in vitro
Concentration: 20 nM
Notes: 7-mer, probes averaged, single round
Baseline: mean of 7-mers
Reading: higher = stronger binding
Residues (chain): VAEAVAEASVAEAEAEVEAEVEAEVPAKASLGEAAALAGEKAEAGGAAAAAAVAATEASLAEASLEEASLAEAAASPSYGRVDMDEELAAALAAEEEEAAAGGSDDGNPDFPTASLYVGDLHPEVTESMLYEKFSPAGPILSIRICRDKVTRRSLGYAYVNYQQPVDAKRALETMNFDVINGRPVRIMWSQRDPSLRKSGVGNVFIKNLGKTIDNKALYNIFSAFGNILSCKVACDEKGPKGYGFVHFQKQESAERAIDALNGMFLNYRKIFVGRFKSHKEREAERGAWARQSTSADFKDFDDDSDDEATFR
Oligonucleotide	7-mer Z-score
UACAGAA	0.148
GCCUGAC	-0.289
ACAAAAC	2.76
UAUAGUU	-0.289
UGGCUCU	-0.0808
GUCUAGC	-0.195
GGUACGA	-0.0228
GGGGGUU	0.169

Set 3
Target: JUN, bZIP domain (human)
Method: DHFR protein complementation
Medium: yeast
Notes: single substitutions, most at no-binding floor
Baseline: wild-type JUN-FOS pair
Reading: higher = stronger binding
Parent: JUN, bZIP domain (human); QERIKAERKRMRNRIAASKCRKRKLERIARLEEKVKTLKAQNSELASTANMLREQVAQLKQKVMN
Change	binding fitness [natural log]
L31G	-1.32
A49D	-1.26
L38V	-1.35
L45C	-1.25
L45G	-1.34
L52T	-1.33
V35H	-1.22
L52G	-1.34

Mixed results
SMILES	cell line	method	concentration	time	notes	endpoint	result
CC(C)(C)OC(=O)N1CCCC1CNC1CCC(c2cc(F)ccc2F)(S(=O)(=O)c2ccc(Cl)cc2)CC1 (stereo not shown)	HEK293T	high-content imaging	concentration not given	24 h	recommended concentration	healthy nuclei	45%

For quick reference, copied from above (set 3):
Change	binding fitness [natural log]
L31G	-1.32
